Measurements from different studies.
Compare with care: the assays were run in different laboratories.
CHRNA1/CHRNG/CHRND: CHRNA1/CHRNG/CHRND (Homo sapiens, UniProt P02708+P07510+Q07001)
UniProt Q07001, sequence (whole entry, looked up): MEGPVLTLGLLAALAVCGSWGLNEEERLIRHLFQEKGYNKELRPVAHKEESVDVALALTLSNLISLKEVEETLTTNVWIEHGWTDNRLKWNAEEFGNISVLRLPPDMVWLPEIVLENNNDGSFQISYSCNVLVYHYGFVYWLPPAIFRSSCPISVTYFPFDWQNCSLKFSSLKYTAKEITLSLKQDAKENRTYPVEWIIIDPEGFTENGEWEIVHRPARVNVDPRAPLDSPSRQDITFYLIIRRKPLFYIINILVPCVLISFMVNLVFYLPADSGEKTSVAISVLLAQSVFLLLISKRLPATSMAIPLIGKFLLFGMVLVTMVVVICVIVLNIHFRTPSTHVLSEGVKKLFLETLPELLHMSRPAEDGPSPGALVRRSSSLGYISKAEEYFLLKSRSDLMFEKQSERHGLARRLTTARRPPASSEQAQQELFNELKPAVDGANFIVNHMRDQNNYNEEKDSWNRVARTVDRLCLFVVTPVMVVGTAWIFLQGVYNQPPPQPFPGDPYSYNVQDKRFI
UniProt P07510, sequence (whole entry, looked up): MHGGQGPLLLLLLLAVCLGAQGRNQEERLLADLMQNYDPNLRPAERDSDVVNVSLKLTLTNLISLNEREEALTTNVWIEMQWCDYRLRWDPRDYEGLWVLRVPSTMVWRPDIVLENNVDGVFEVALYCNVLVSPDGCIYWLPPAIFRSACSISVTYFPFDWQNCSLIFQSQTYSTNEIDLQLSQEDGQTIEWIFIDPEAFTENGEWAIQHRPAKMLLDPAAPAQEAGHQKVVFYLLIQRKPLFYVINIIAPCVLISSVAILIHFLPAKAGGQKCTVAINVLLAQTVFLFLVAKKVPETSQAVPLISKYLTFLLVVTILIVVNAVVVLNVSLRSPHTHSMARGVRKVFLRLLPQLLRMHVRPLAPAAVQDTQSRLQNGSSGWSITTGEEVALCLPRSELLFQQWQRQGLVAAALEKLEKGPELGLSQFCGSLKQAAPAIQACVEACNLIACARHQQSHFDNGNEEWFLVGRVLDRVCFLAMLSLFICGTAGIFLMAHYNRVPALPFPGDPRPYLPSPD
UniProt P02708, sequence (whole entry, looked up): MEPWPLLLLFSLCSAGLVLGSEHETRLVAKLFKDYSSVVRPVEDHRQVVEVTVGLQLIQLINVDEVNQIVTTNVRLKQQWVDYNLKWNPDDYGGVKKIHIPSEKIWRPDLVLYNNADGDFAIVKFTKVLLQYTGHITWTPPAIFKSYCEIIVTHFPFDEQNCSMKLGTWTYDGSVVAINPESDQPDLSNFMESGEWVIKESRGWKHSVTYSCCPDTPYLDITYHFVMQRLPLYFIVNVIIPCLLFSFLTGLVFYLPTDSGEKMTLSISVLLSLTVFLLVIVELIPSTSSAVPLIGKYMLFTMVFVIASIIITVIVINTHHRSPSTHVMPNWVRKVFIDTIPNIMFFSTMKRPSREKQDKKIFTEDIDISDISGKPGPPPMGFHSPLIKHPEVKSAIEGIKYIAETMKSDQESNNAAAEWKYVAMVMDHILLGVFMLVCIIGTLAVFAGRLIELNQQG
Grin1: Glutamate receptor ionotropic, NMDA 1 (Grin1, Rattus norvegicus, UniProt P35439)
Polyprotein P1234 nsP2: Polyprotein P1234, nsP2 (Chikungunya virus, UniProt Q8JUX6)
UniProt Q8JUX6, sequence (whole entry, looked up): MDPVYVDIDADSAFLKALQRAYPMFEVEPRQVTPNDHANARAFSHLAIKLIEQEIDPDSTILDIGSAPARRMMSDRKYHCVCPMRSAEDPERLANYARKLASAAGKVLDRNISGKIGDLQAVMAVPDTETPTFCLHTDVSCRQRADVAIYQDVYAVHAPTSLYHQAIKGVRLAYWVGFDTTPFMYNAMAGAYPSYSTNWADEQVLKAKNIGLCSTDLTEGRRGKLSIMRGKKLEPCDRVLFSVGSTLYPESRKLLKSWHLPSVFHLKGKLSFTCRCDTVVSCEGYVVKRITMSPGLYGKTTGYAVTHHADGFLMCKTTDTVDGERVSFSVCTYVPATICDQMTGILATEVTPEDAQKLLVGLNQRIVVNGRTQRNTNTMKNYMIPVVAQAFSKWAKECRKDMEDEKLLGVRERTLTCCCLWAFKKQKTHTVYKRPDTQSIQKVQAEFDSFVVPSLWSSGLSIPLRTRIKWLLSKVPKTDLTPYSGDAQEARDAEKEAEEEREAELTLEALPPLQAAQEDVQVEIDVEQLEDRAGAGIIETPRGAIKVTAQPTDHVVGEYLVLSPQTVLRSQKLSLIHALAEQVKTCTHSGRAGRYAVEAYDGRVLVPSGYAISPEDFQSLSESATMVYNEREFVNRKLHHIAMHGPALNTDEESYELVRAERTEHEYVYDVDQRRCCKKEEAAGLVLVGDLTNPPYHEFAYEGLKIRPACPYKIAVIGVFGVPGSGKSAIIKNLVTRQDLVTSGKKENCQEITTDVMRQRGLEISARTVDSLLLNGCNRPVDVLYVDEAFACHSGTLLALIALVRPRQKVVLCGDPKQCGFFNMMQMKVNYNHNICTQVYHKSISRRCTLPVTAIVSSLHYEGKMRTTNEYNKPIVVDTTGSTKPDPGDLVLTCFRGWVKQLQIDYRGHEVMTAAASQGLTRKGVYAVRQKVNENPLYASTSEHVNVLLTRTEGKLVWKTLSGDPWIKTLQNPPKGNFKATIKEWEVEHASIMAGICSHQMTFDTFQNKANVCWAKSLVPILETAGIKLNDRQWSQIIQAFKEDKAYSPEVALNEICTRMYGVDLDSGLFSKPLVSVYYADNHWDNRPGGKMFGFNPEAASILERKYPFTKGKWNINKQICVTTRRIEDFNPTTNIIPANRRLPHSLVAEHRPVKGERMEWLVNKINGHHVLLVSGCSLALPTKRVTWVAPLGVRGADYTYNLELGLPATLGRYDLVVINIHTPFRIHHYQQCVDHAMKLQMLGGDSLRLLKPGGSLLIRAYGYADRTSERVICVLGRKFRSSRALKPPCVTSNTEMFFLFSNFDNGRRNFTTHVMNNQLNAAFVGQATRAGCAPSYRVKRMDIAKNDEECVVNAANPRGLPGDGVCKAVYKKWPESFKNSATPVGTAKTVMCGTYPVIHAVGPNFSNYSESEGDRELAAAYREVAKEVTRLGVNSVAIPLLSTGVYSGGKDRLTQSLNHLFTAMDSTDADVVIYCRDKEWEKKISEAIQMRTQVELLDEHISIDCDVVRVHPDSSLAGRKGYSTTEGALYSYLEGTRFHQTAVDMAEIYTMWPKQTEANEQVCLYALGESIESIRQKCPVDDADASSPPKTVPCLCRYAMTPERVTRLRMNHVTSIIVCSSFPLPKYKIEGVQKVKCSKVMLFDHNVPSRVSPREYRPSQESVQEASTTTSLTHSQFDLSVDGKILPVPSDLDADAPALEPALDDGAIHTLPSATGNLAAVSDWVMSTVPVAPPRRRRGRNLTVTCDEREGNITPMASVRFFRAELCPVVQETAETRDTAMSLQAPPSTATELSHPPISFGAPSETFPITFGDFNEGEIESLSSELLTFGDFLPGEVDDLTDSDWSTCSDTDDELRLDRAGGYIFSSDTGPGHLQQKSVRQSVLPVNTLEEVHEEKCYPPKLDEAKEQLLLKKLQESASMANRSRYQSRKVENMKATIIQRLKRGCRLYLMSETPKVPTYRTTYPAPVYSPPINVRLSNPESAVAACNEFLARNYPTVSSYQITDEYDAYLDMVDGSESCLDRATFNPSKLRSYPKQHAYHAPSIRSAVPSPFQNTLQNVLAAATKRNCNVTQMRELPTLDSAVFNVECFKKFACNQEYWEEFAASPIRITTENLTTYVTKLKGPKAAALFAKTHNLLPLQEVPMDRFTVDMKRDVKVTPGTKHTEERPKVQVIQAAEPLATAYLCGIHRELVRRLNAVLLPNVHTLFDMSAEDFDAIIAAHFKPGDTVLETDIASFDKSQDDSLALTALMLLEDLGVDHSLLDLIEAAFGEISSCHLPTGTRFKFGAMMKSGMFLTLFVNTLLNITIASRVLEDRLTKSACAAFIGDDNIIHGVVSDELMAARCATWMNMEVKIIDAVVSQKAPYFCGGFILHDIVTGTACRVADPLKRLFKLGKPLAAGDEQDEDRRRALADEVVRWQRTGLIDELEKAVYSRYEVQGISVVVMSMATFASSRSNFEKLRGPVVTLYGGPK
UniProt P42494, sequence (whole entry, looked up): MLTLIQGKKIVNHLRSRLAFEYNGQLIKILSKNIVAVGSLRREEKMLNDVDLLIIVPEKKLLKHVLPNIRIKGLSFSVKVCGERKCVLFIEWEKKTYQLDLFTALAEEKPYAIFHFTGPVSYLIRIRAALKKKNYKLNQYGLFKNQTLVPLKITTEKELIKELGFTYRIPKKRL
UniProt P15917, sequence (whole entry, looked up): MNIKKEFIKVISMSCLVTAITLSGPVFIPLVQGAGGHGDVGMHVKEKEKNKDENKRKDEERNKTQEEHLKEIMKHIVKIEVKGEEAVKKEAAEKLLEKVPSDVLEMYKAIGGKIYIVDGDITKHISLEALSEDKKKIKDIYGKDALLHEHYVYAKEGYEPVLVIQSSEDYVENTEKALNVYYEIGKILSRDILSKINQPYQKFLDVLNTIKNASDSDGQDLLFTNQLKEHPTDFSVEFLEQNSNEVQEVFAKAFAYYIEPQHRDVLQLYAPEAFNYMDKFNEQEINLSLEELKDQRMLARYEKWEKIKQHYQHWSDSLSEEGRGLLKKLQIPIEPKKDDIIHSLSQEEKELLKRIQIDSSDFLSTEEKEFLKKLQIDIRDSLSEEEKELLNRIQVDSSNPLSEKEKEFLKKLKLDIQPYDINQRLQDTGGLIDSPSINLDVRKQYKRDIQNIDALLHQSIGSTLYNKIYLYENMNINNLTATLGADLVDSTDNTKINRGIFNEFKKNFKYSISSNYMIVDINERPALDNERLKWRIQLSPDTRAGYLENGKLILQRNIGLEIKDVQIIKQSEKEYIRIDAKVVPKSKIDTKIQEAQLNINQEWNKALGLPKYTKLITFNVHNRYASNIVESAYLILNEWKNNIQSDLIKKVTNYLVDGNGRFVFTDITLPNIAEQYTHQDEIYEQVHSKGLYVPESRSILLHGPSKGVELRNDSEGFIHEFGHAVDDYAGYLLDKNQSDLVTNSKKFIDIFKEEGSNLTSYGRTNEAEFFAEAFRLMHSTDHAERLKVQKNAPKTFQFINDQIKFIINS

| SMILES | target | test | test system | setting | inhibition |
| --- | --- | --- | --- | --- | --- |
| Cc1[nH]nc2c1N=C(c1ccccc1Cl)c1cnc(N3CCOCC3)cc1N2 | CHRNA1/CHRNG/CHRND | – | – | 10 µM | 9% |
| C[C@H](NCc1ccc(-c2ccc(C(F)(F)F)cc2)cc1)C(N)=O | sodium channel site 2, rat | binding, radioligand binding | biochemical | 1 µM, added: [3H]batrachotoxinin 5.0 nM | 38% |
| CCOC(=O)[C@](CC)(CCCSCCOCCOCCNC(=O)c1ccc(-c2c3ccc(=N)c(S(=O)(=O)O)c-3oc3c(S(=O)(=O)O)c(N)ccc23)c(C(=O)O)c1)NC(=O)c1ccc(C2CC2)c(Cc2ccc(F)cc2)n1 | Grin1 | ligand displacement, radioligand | – | 10 µM | 8% |
| CS(=O)(=O)NCC1CCOC2(CCN(C(=O)Cc3ccccc3)CC2)C1 (stereo not shown) | Polyprotein P1234 nsP2 | ATPase activity, ADP-Glo | – | 200 µM | < 10% |
| COCC(=O)N1CCc2cc(-c3csc(NC(=O)c4cc(OC)cc(OC)c4)n3)ccc21 | CHRNA1/CHRNG/CHRND | – | – | 10 µM | -3% |
| CC(C)C[C@H](NC(=O)[C@@H](NC(=O)[C@@H](CCCNC(=N)N)NC(=O)[C@@H](CCCNC(=N)N)NC(=O)[C@@H](CCCNC(=N)N)NC(=O)[C@@H](CCCNC(=N)N)NC(=O)[C@@H](CCCNC(=N)N)NC(=O)[C@@H](CCCNC(=N)N)NC(=O)[C@@H](CCCNC(=N)N)NC(=O)[C@@H](CCCNC(=N)N)NC(=O)[C@H](N)CCCNC(=N)N)C(C)C)C(=O)N[C@@H](CCCNC(=N)N)C(=O)NO | Lethal factor (Bacillus anthracis, UniProt P15917) | enzyme activity, inhibitor | – | 0.02 µM | 93% |
| O=C(O)c1ccc(Nc2cc(Nc3ccc(C(=O)O)cc3)c3c(=O)c(Nc4ccc(C(=O)O)cc4)c(-c4ccc(Nc5ccc(C(=O)O)cc5)c(Nc5ccc(C(=O)O)cc5)c4)oc3c2)cc1 | Spike glycoprotein, receptor-binding domain (MERS-CoV, UniProt K9N5Q8) | spike protein activity | – | concentration not given | inhibited |
| O=C1c2sc(-c3ccc(N4CCC(F)C4)nc3F)nc2CCN1c1cccnc1 (stereo not shown) | Grin1 | ligand displacement, radioligand | – | 1 µM | -11% |
| CSCC[C@H](NC(=O)[C@H](CCN)NC(=O)[C@@H](NC(=O)[C@H](Cc1c[nH]c2ccccc12)NC(=O)[C@H](CCCNC(=N)N)NC(=O)[C@@H](N)CCNc1ccc([N+](=O)[O-])cc1[N+](=O)[O-])[C@@H](C)O)C(=O)N[C@@H](CC(C)C)C(N)=O | Botulinum neurotoxin type A (Clostridium botulinum, UniProt P0DPI0) | enzyme activity, inhibitor | – | concentration not given | > 90% |
| CS(C)(=O)=Nc1ccc(-c2ccc(-c3nc4cc(O[C@@H]5CO[C@H]6[C@@H]5OC[C@H]6O)[nH]c4cc3F)cc2)cc1 | strychnine-sensitive glycine receptor | binding | – | 10 µM | -11% |
| CS(=O)(=O)NCC1CCOC2(CCN(C(=O)C3(c4ccccc4)CCCCC3)CC2)C1 (stereo not shown) | Polyprotein P1234 nsP2 | ATPase activity, ADP-Glo | – | 200 µM | 80% |
| CC[C@H](C)[C@H](NC(=O)[C@H](Cc1c[nH]cn1)NC(=O)[C@H](Cc1ccc(O)cc1)NC(=O)[C@H](CCCCN)NC(=O)[C@@H]1CSSC[C@@H]2NC(=O)[C@H](CCC(=O)O)NC(=O)[C@H](CC(=O)O)NC(=O)[C@H](C)NC(=O)CNC(=O)[C@H](Cc3ccc(O)cc3)NC(=O)[C@H](CCCCN)NC(=O)[C@@H]3CSSC[C@H](NC(=O)[C@H](C(C)C)NC(=O)[C@H](Cc4ccc(O)cc4)NC(=O)CNC(=O)[C@H](CCCCN)NC(=O)[C@H](CSSC[C@H](NC(=O)[C@@H](N)CO)C(=O)N[C@@H](CCCCN)C(=O)N[C@@H](C(C)C)C(=O)N[C@@H](Cc4c[nH]c5ccccc45)C(=O)N[C@@H](Cc4ccccc4)C(=O)N[C@@H](CC(N)=O)C(=O)N[C@@H](CCC(=O)O)C(=O)N3)NC2=O)C(=O)N[C@@H](CO)C(=O)N[C@@H](CCCCN)C(=O)N[C@@H](CCCNC(=N)N)C(=O)N[C@@H](CC(=O)O)C(=O)NCC(=O)N[C@@H](Cc2c[nH]c3ccccc23)C(=O)N1)C(=O)N[C@@H](CC(N)=O)C(=O)O | SCN9A (Homo sapiens, UniProt Q15858) | ion current, inhibitor, patch clamp | HEK293 | 3.3 µM | 64.8% |
| O=c1cc(-c2ccc(O)cc2)oc2c([C@@H]3OC[C@H](O)[C@H](O)[C@H]3O)c(O)c([C@@H]3O[C@H](CO)[C@@H](O)[C@H](O)[C@H]3O)c(O)c12 | Replicase polyprotein 1ab, main protease (rep, Severe acute respiratory syndrome-related coronavirus, UniProt P0C6X7) | enzyme activity, inhibitor | – | 8 µM | 68.4% |
| O=C(O[C@@H]1Cc2c(O)cc(O)cc2O[C@@H]1c1cc(O)c(O)c(O)c1)c1cc(O)c(O)c(O)c1 | Replicase polyprotein 1a, main protease (Severe acute respiratory syndrome-related coronavirus, UniProt P0C6U8) | 3CL protease activity | – | concentration not given | no inhibition |
| CN(C)CC(=O)Nc1ccc2[nH]c(=O)c3ccccc3c2c1 | Nucleoprotein (Severe acute respiratory syndrome coronavirus 2, UniProt P0DTC9) | nucleoprotein-RNA interaction, HTRF | – | 50 µM | no effect |
| CC1=CC(=C(c2cc(C)c(O)c(C(=O)O)c2)c2c(Cl)ccc(S(=O)(=O)O)c2Cl)C=C(C(=O)O)C1=O | Ba71V-97, DNA complex (African swine fever virus, UniProt P42494) | enzyme activity | – | 100 µM | > 50% |

Some of these lines once more:
| SMILES | target | test | test system | setting | inhibition |
| --- | --- | --- | --- | --- | --- |
| CS(=O)(=O)NCC1CCOC2(CCN(C(=O)C3(c4ccccc4)CCCCC3)CC2)C1 (stereo not shown) | Polyprotein P1234 nsP2 | ATPase activity, ADP-Glo | – | 200 µM | 80% |
| COCC(=O)N1CCc2cc(-c3csc(NC(=O)c4cc(OC)cc(OC)c4)n3)ccc21 | CHRNA1/CHRNG/CHRND | – | – | 10 µM | -3% |
